Results pooled from the literature.
Protocols differ between the studies behind these lines. Several values in a cell are separate wells, animals, samples, runs or records.
Target: Tyrosine-protein kinase receptor UFO (AXL, Homo sapiens, UniProt P30530)

The remaining binding of `CNC1C[S+]2CC[S+]3CC[S+](C1)[Ru-4]321([N]=C=S)[n]2c3ccc(OC)cc3c3c4c(c5cc(F)c[n+]1c5c32)C(=O)NC4=O` (centres unmarked) is reported as 95% (KinomeScan; 0.1 µM; reference: untreated).
`COc1ccc(NC(=O)Nc2ccc3c(c2)C(=O)N(C(C)CO)CC(C)C(CN(C)Cc2ccc4c(c2)OCO4)O3)cc1` (centres unmarked) gave a remaining activity of 94% (kinase activity, KinaseProfiler; 0.03 µM, species human; reference: control).
`CN1CC[C@@H](COc2cnc(C#N)cc2-c2ccn3nc(NC(=O)C4CC4)cc3c2)C1` has an inhibition of 2% (enzyme activity, inhibitor; 1 µM).
With `COc1ccc(O)cc1-c1c[nH]c2ncc(-c3cncc(C(=O)N(C)C)c3)cc12` the inhibition was 11.3% (binding, competition with immobilised ligand; 0.2 µM).
The inhibition of `CCn1cc(C(=O)O)c(=O)c2c(N)c(F)c(NC3CCCCC3)cc21` is reported as 5.6% (kinase activity; 0.1 µM, added: ATP at Km).
`C=CC(=O)N1Cc2nc(-c3cc(-c4cc(Cl)cnc4Cl)c(F)cc3F)n(-c3ccncn3)c2C1` gave an inhibition of -0.9% (cell-free assay; 1 µM).
`C=CC(=O)N1CCCC(n2c(=O)c3ncccc3n(Cc3ccc(Oc4ccccc4)cc3)c2=O)C1` (centres unmarked) gave a remaining binding of 84% (cell-free assay, competition with immobilised ligand; 1 µM).
With `CN1CCN(Cc2ccc(NC(=O)c3cccc(C#Cc4cnc(N)c5ncccc45)c3)cc2C(F)(F)F)CC1` the remaining binding was 54% (cell-free assay, competition with immobilised ligand; 50 nM).
With `NC(=O)C[C@H]1CCc2sc3ncnc(O[C@H]4CC[C@H](N5CCOCC5)CC4)c3c21` the inhibition was 1% (enzyme activity, inhibitor; 10 µM).
With `CC(=O)N1c2ccc(-c3ccc(CNC(=O)c4cn5cc(-c6cnc(N)nc6)nc(N6CCOCC6)c5n4)cc3)cc2CC[C@@H]1C` the remaining binding was 33% (binding, competition with immobilised ligand; 10 µM).
`Cc1ccc(-c2c(/C=C(\C#N)C(=O)NC(C)C)n(CCCO)c3ncnc(N)c23)cc1` gave a remaining binding of 68% (cell-free assay, competition with immobilised ligand; 1 µM).
`O=C(Nc1ccc(Oc2ncnc3[nH]cc(-c4ccccc4)c23)c(F)c1)c1c2n(n(-c3cc(F)ccc3F)c1=O)CCCC2` gave an inhibition of 93% (enzyme activity, inhibitor; 0.5 µM).
The remaining binding of `CCN1CCN(Cc2ccc(C(=O)Nc3ccc(C)c(NCc4cnc5[nH]ccc5c4OC)c3)cc2C(F)(F)F)CC1` is reported as 60% (binding, competition with immobilised ligand; 1 µM).
For `CNS(=O)(=O)Nc1nccc(Cc2c(C)c3ccc(Oc4ncccc4F)cc3oc2=O)c1F`, the remaining binding was 98% (binding, competition with immobilised ligand; 10 µM).
`Cc1cccc(O[C@H]2CCC[C@@H](C(C)CNCc3ccncc3)C2)c1` (relative stereo) gave an inhibition of 5% (cell-free assay; 1 µM).
With `COc1cc(Nc2nccc(-c3cnn4nc(OC)ccc34)n2)cc(C(F)(F)F)c1` the remaining binding was 72% (binding, competition with immobilised ligand; 1 µM).
The inhibition of `C=CC(=O)Nc1cccc(-c2cnc3[nH]cc(C(=O)NC(C)(C)C)c3n2)c1` is reported as 28% and 26% (kinase activity; 0.1 µM).
The remaining binding of `CC(C)=CC1OC(C)(C)C2C=C3C(=O)C(Cl)=CC(O)C3C3C(O)C4OC4C(=O)C132` (centres unmarked) is reported as 97% (cell-free assay, competition with immobilised ligand; 10 µM).
With `C=C1CCCCCCCCCC(CO)C1=O` (centres unmarked) the remaining binding was 96% (cell-free assay, competition with immobilised ligand; 10 µM).
`O=C(Cc1ccc(OCc2ccccc2)cc1)NC1(C(=O)O)CCN(C(=O)c2ccc(-c3cccc(Cl)c3)cc2)CC1`: “activity vs control” 76% (enzyme activity, inhibitor; 10 µM).

A few entries again:
The remaining binding of `CCN1CCN(Cc2ccc(C(=O)Nc3ccc(C)c(NCc4cnc5[nH]ccc5c4OC)c3)cc2C(F)(F)F)CC1` is reported as 60% (binding, competition with immobilised ligand; 1 µM).
For `CNS(=O)(=O)Nc1nccc(Cc2c(C)c3ccc(Oc4ncccc4F)cc3oc2=O)c1F`, the remaining binding was 98% (binding, competition with immobilised ligand; 10 µM).
